Assay results gathered from unrelated publications.
Each line is one published result; not all experiments were run side by side.

CC(=O)O[C@H]1C(=O)[C@@]2(C)[C@H]([C@H](OC(=O)c3ccccc3)[C@]3(O)C[C@H](OC(=O)[C@H](O)[C@@H](NC(=O)c4ccccc4)c4ccccc4)C(C)=C1C3(C)C)[C@]1(OC(C)=O)CO[C@@H]1C[C@@H]2O — adverse events, all grades (refers to: aspartate aminotransferase increased; patients with advanced solid tumours; intravenous, dose not given, phase Ib, related to compound): 35%
Cc1c(C(=O)O)ccc2c3n(nc12)[C@@H]1[C@H](C3)N(CC2CC2)[C@@]2(C(=O)Nc3cc(Cl)ccc32)[C@H]1c1cccc(Cl)c1F — adverse event incidence (phase Ia trial, refers to: Headache; cancer patients; oral, dose not given, all patients all grades): 16.7%
CNC(=O)c1ccc(-c2cnc3ncc(Cc4ccc5ncccc5c4)n3n2)cc1F — adverse event incidence (phase 1 clinical trial, refers to: upper abdominal pain; other expansion cohort; oral, 600 mg twice daily, grade 3 or 4): 0%
Cc1cc(Nc2ccc(S(F)(F)(F)(F)F)cc2)n2nc(C(C)(F)F)nc2n1 — adverse event abdominal pain (Plasmodium vivax malaria patients; oral, 600 mg): 0%
Cc1c(Cl)c(C)[n+]([O-])c(Cl)c1-c1noc(-c2cc(O)c(O)c([N+](=O)[O-])c2)n1 — adverse drug reaction incidence (refers to: Belching; healthy Chinese subjects; oral, 50 mg, 20 days): 0%
Cc1ccc(Sc2ccccc2N2CCNCC2)c(C)c1 — adverse event incidence (TEAE dysphoria; healthy adult men; oral, 10 mg single dose, 8 nights, overall): 5%
FC(F)(F)c1ccc(CNc2ccc(Cc3c[nH]c4ncc(Cl)cc34)cn2)cn1 — adverse event incidence (refers to: Anaemia; patients with advanced solid tumours; oral, dose not given, grade 3 and 4, possibly related to drug): 15%
O=C1CCc2ccc(OCCCCN3CCN(c4cccc(Cl)c4Cl)CC3)cc2N1 — adverse event incidence (refers to: Hypotension; patients, CYP2D6 intermediate metabolizers; dose not given, long-acting oral or depot): 1.8%
NCCONC(=O)[C@@H]1CC[C@@H]2CN1C(=O)N2OS(=O)(=O)O — adverse event incidence (refers to: leading to temporary interruption; healthy Chinese men; intravenous, 2 g, treatment-emergent): 0%

Some of these lines once more:
FC(F)(F)c1ccc(CNc2ccc(Cc3c[nH]c4ncc(Cl)cc34)cn2)cn1 — adverse event incidence (refers to: Anaemia; patients with advanced solid tumours; oral, dose not given, grade 3 and 4, possibly related to drug): 15%
